Experimental data gathered from unrelated publications.
Each numbered part is a random draw from the data of one study; scales do not carry over between parts. Positions count from the first letter of the parent shown.

Series 1
Target: CCNB1, cyclin fold, Cln2 fusion (human)
Method: yeast growth competition, sequencing
Medium: yeast
Notes: weak parent motif
Baseline: not given
Direction: higher = stronger binding
Parent: DBF4B docking peptide (human); LGYLYLLLTQSLW
Substitution | normalised enrichment score
AGYLYLLLTQSLW [L1A] | 0.502
LGYLYLLLTQSLA [W13A] | 0.0632
LGYLYLALTQSLW [L7A] | 0.18
LGYLYLLLAQSLW [T9A] | 0.686
LGYLALLLTQSLW [Y5A] | 0.635
LGYLYLLLTASLW [Q10A] | 1.04

Series 2
Target: RING finger protein unkempt homolog, zinc fingers 1-6, GST-SBP tag (UNK, Homo sapiens, UniProt Q9C0B0, residues 30-357)
Method: RNA Bind-n-Seq
Molecule type: RNA
Medium: in vitro
Tested at: not given
Notes: RNA with constant flanks, human and mouse sites, ends assumed
Baseline: input RNA pool
Direction: higher = stronger binding
All sequences stand within: GGGAGUUCUACAGUCCGACGAUC … CAACAGAGGAUUGAGCAUCA
Target sequence (chain): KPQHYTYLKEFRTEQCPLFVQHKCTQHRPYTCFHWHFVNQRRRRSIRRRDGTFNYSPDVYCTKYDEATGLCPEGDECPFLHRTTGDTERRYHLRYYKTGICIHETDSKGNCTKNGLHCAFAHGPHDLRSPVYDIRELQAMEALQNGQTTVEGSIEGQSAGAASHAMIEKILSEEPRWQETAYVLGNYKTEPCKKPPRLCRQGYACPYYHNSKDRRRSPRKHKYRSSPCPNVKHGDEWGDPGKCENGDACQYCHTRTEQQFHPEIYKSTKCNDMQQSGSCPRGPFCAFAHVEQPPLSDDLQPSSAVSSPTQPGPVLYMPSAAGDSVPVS
Strand | bound/input enrichment [ratio]
UGCAAUUGGGUAGUGGACACUUGUUUACAUAAGGGAAGUCGAGAUAACAUGAGUGUUGUAUUAGUUUGCUUUUCAAAUGCCCCCAAGGUCUCAGAGGAAGCCGUGAAGAGAGAUUCAGAG | 0.316
CUGAAGAAGACGGCUAGCCUCGGGUUCUGCGCAGUUUCCCUCUACUUUGUCACGGCCUUCAUCAUCCCCGCCAUCUCCACCAAUAUCCAGUCCAUGCACAAAGGCACCGGCUCUCCAUGG | 0.197
AAUAGAGGAUUAUAUUCAAUUGAAGUGCUGGAGCUCUUCUGAUAUUAUCAAUUCUCCUUCAUAGACAUUUUAUAAAGCUCUUUUAUGUGAACUCUUGCUUCAUCCAGGCAAGAACGGUGU | 3.28
UUGGCUGCAGUGCUGUUGUCAGGCUUGACAACCUCAUGUCCCACCUCAGUGACUGUGAGCACAACCCGAAGCGGCCUGUGACCUGUGAGCAGGGCUGUGGCCUGGAGAUGCCCAAAGAUG | 0.0558
UUUAAUUUAAUGCUGUAGAGGGUGACUUGCCAUCGUGAGAGAUUGGUACAUGAUGUGUAAAUUCAGUUCAGCAUAUGUUUCUUCAUUAUGAAACCACUAGCAAUCCCAGCUAACCAUGGA | 0.36
UAAGGUUAUAGGGCUCCCUGAGUUUGGGAGUGUGGAAGUACUACUUAACUGUCUGUCCUGCUUGGCUGUCGUUAUCGUUUUCUGGUGAUGUUGUGCUAACAAUAAGAAGUACACGGGUUU | 0.261
AAAGCAAUUGAGCAGGCCGAUCUCCUGCAGGAGGAUGCAAAAGAAGCUGAAACCCCACGUAGUGUUCUUGAAGAAAUUGGACUGACAUAACUGUCCUCCCUUGCUGAUGACUUCUUGUGG | 0.217
GGCGAAGCAGCUCCAUCUCAGAAUACAGAAAGCUACGGAGUCCCUGAAGAGCUUUAGACCUGCAGCCCAGGCUUCUUUUGAAGACUAUGUUGUUAACAUAUCGAAACAAACAGAGGUGCU | 0.252

Series 3
Target: Histone acetyltransferase KAT6A, both winged helices, GST fusion (KAT6A, Homo sapiens, UniProt Q92794, residues 1-181)
Method: protein binding microarray
Molecule type: double-stranded DNA, one strand shown
Medium: in vitro
Tested at: not given
Notes: 8-mer, flanks averaged, mean of 2 arrays, mostly near background
Baseline: not given
Direction: higher = stronger binding
Residues (chain): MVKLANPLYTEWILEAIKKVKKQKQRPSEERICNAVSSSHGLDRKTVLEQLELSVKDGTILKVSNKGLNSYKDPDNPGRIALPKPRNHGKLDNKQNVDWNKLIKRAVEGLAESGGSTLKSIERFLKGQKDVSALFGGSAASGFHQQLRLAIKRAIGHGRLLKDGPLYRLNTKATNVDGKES
Strand | E-score
CACATGGG | -0.185
CTAGCTGA | -0.193
CACAGACA | -0.0997
ACAGGTCG | -0.0208
ACTCACAG | -0.193
CACGGATA | 0.176
ACAAAGCG | 0.18
CTCCGTGA | 0.166
ATCACTTC | -0.158
TACGCGAA | 0.242
CTTTTCGA | -0.179
CCGCCTCC | 0.166
AATCCGGG | 0.12
GCGCGGTA | 0.38
AACCCGGT | 0.222
TATTACAA | -0.0209
TATATAGA | -0.0091
ACAAATGT | -0.139
ATCTAGAC | -0.0761
CCCCAGCA | -0.0979

Series 4
Target: RNA binding protein fox-1 homolog 2, RRM domain, GST-SBP tag (RBFOX2, Homo sapiens, UniProt O43251-10, residues 100-194)
Method: RNA Bind-n-Seq
Molecule type: RNA
Medium: in vitro
Tested at: 365 nM
Notes: natural RNA segment, single round, ends assumed
Baseline: no-protein control
Direction: higher = stronger binding
All sequences stand within: GGGAGUUCUACAGUCCGACGAUC … UGGAAUUCUCGGGUGCCAA
Construct (chain): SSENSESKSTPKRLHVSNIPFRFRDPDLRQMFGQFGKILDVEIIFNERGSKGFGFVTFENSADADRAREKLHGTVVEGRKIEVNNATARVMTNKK
Strand | RBNS enrichment (R)
ACCCACAGAACACUGUGAGUGGUGAGCACCAAGAUGGGUUGCCAGCCUCAUUUGCUCUUUGAACGAACCAACAUUAGCCAGUGGAGACGACUGUCUGAGACAGUUUGCAC | 0.447
UUCAGGUAGCAUCUGAAAUUUUAAUGAAUGUAUAAUUGGCAUAUCAUGGAAAAUUAACCAGAAAGUAUCAGUUCUUAAAAGUUAUGCCUAGAAAUUAUGUAAAGCUAAAC | 5.84
UAGUUACUGGUACUGUUGCCAAGCAAUCUGCUUGGAAUUUGUGGAUCCCUGCUGUUCCCUAAUCCCACCCCCUGCCCUGAGACAGUGAAUGUAGUCCGUGAAGGGAGUGC | 0.898
AGGACAACAGCAAGAUGAGCCUGUGCAUGAAGAACUCACGGGGCACUUCCCCACAAUGCUGCAUUACCGAUAGGACCUAGUGUUUACUACAGUGUAAAUGUUUAUAUGGA | 10.5
CUUCCCUUUUGAAAGGCCCGUGUGUUUUCUUUCCUUACCCUGUGCUUGCUCAUGUCUACUCCGGUUUUCUCUACCACAUCCUUAGAGCCAUCACCUGGCACGCAGGCGCC | 0.643
AAGUCUAUCUUGAAGCUGCCUGUUUGAAGUUUCCCAUGCGUCGCCUUGUGCUUCGGUUUCUAAGGGCCCUGUGGUGUGCAGUGAGCUCCCUUCCCGGCACGUGGAUUUUU | 0.219
UGCUUGAAUACAAGUGGCUAAGCCAACAACAGAAUAAAUACUUUUAUAGUAGUUUUAUAAUCCUGAAAUUCGAAAGCUUUCCCAAUUGCACUUGCAUCUAAACAAAACUG | 0.617
ACCACCUUUUACUGCACAAUUCACAAGCAUGUUUUCCUGGUGAAUUGGACUGAAAAUUACAUUUUGACAACUUUUUUUCCUUUUAUCCCCAACUUUUGCCAGAAAGCAGA | 4.57
